Experimental data from different studies.
Protocols differ between the studies behind these lines. Several values in a cell are separate wells, animals, samples, runs or records. ± marks the error that the study gave.
HDAC3: Histone deacetylase 3 (HDAC3, Homo sapiens, UniProt O15379)
UniProt O15379, sequence (whole entry, looked up): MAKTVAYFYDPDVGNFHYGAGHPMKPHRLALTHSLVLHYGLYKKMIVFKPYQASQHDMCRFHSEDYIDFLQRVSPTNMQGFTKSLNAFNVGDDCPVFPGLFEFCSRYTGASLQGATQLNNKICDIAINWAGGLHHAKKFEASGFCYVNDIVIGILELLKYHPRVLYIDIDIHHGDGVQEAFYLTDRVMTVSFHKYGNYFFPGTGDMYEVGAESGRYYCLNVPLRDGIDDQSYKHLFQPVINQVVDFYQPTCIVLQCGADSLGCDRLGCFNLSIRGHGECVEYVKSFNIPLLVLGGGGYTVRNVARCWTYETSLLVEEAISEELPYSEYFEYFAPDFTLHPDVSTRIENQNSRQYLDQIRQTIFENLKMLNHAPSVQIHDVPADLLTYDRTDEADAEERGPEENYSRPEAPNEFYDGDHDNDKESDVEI
HDAC6: Protein deacetylase HDAC6 (HDAC6, Homo sapiens, UniProt Q9UBN7)
UniProt Q9UBN7, sequence (whole entry, looked up): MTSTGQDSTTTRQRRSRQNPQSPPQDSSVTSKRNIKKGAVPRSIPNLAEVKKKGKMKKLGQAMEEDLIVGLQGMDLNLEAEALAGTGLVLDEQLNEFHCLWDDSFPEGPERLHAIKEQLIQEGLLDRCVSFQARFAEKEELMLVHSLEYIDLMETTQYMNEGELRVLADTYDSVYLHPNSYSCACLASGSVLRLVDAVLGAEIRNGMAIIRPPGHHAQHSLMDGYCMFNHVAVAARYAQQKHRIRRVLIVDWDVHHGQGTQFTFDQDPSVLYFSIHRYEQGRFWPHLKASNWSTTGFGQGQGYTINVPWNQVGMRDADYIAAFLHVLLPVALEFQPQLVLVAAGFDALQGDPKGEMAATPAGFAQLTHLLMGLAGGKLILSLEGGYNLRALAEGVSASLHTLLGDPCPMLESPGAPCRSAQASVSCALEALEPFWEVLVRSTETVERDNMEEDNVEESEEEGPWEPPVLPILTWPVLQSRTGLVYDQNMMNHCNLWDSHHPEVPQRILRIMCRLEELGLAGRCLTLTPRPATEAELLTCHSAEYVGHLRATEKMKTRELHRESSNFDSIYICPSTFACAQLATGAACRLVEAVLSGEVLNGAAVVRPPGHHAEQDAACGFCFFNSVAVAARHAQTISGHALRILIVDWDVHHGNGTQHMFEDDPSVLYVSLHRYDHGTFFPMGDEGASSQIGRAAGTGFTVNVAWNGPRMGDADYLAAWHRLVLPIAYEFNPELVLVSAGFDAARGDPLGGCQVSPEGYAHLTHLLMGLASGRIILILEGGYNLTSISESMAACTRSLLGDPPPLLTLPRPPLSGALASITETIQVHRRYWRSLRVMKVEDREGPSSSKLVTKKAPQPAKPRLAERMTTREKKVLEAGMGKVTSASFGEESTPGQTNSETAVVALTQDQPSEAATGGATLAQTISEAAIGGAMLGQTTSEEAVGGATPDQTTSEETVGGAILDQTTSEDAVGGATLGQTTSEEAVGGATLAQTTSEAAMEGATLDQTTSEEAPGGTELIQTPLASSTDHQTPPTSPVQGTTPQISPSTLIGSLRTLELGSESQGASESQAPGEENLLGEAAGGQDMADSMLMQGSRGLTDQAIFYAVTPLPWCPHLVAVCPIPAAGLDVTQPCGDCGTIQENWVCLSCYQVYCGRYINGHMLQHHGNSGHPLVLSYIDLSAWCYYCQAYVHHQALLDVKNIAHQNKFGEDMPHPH
UniProt P05979, sequence (whole entry, looked up): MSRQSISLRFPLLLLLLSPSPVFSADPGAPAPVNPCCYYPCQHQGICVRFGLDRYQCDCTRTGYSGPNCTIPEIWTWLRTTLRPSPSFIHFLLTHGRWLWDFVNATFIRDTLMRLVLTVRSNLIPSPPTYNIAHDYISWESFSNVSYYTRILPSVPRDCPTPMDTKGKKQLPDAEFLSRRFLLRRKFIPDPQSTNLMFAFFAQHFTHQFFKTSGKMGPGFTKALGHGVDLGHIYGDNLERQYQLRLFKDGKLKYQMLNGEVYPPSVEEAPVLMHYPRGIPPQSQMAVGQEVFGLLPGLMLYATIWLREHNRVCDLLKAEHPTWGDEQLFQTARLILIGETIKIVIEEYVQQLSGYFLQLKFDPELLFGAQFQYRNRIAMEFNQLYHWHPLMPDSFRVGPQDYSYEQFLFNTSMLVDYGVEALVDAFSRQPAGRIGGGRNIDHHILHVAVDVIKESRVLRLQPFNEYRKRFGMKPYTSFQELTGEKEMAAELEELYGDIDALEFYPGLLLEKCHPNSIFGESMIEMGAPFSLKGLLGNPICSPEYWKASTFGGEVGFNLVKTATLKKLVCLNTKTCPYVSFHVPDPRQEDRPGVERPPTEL
UniProt P10275, sequence (whole entry, looked up): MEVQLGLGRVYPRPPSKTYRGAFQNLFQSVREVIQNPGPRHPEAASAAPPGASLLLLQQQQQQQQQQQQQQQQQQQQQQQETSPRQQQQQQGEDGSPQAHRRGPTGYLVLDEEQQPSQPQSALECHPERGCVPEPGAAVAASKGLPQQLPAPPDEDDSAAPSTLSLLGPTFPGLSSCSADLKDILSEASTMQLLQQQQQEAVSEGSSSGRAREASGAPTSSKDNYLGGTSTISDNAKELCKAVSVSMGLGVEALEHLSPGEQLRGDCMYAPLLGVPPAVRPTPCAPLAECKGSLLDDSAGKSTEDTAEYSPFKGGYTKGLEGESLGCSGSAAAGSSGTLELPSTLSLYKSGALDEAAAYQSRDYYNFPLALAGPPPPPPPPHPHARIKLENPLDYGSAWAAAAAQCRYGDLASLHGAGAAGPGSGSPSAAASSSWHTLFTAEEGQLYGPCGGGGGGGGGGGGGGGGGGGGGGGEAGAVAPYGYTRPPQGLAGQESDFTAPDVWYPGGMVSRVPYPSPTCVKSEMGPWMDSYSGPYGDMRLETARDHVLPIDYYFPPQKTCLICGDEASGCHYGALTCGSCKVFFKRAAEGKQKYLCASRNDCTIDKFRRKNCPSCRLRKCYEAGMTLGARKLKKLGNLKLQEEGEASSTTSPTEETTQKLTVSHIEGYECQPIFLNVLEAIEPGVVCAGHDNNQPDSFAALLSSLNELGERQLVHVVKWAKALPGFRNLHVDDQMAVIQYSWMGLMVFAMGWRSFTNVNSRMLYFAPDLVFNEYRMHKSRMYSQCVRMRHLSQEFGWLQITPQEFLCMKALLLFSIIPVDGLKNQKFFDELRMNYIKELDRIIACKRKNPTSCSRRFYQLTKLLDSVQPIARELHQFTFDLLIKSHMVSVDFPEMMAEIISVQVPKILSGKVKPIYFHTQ
UniProt Q8NEC5, sequence (whole entry, looked up): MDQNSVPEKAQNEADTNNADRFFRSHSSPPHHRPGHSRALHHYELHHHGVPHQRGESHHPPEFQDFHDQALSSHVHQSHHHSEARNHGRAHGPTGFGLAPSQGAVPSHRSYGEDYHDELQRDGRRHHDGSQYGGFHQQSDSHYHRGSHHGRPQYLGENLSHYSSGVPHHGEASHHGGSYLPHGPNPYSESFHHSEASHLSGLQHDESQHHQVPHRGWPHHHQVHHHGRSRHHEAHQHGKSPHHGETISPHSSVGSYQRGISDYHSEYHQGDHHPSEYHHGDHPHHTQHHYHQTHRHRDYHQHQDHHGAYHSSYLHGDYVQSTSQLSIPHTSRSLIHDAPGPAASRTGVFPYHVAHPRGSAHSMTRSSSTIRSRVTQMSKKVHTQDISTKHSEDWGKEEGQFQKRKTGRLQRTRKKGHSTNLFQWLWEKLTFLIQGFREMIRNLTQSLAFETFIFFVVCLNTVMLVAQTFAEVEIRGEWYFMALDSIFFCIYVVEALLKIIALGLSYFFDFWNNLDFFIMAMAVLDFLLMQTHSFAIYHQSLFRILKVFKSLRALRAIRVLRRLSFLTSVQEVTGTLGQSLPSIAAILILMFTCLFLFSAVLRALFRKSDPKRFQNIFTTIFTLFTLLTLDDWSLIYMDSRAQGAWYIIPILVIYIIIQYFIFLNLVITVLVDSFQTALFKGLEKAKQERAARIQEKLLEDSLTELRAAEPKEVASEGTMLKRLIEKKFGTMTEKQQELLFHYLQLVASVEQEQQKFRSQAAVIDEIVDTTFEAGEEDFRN
UniProt A0QSG6, sequence (whole entry, looked up): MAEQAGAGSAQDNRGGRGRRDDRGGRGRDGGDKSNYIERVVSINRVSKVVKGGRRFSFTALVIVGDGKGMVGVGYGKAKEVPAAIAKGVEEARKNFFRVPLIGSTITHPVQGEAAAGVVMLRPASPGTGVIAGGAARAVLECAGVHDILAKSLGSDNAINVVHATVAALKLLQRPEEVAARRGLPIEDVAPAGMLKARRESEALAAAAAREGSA
UniProt P78325, sequence (whole entry, looked up): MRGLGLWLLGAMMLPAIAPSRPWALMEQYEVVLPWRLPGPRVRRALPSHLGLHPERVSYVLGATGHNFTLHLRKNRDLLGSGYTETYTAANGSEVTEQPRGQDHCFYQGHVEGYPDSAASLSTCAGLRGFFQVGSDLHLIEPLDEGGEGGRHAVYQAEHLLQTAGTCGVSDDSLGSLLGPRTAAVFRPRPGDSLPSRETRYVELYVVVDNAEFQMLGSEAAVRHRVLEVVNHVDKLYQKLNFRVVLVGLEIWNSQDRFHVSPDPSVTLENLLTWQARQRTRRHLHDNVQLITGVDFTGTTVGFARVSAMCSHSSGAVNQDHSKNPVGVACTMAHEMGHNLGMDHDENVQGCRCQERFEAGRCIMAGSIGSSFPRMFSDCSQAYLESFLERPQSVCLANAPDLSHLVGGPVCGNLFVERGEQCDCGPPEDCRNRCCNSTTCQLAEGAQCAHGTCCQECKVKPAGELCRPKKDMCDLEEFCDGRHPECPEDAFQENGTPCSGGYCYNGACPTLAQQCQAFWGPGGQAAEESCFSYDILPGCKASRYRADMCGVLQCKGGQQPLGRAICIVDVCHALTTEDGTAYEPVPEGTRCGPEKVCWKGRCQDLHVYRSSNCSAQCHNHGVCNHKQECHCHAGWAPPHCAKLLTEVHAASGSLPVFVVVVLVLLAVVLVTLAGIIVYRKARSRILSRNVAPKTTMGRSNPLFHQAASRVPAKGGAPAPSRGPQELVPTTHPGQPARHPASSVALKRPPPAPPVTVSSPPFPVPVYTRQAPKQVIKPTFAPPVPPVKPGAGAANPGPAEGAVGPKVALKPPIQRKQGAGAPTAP

| Compound | target | test | system | setting | IC50 |
| --- | --- | --- | --- | --- | --- |
| C=CC1CN2CCC1CC2C(O)c1c(-c2ccc(N=Nc3ccccc3)cc2)cnc2ccc(OC)cc12 (stereo not drawn) | SCN5A (Homo sapiens, UniProt Q14524) | sodium current, blocker, whole-cell patch clamp | HEK-293T | pH 7.3, cis isomer, together with: light 365 nm | 11.8 µM |
| CC(C)CCN(Cc1ccccn1)c1nc(C#N)nc(N2CCOCC2)n1 | CPL (Toxoplasma gondii, UniProt Q6DMN0) | enzyme activity, inhibitor, Z-L-R-AMC hydrolysis fluorescence |  |  | 0.082 µM |
| O=C(CCCCCCC(=O)Nc1cccc(N=Nc2ccccc2)c1)NO | HDAC3 | enzyme activity, inhibitor |  | trans isomer | 0.019 ± 0.009 µM |
| N#CC1=C(N)n2c(nnc2-c2ccccc2)NC1c1ccc(Cl)cc1 (stereo not drawn) | PTGS2 (Homo sapiens, UniProt P35354) | enzyme activity, inhibitor |  |  | 34.5 µM |
| CC[C@H](C)[C@H](NC(=O)[C@H](CC(N)=O)NC(=O)[C@H](Cc1c[nH]cn1)NC(=O)[C@@H](NC(=O)[C@H](CCC(N)=O)NC(=O)[C@H](CCCNC(=N)N)NC(=O)[C@H](CCSC)NC(=O)[C@H](C)N)[C@@H](C)O)C(=O)N[C@@H](Cc1ccccc1)C(=O)N[C@@H](Cc1ccccc1)C(=O)N[C@@H](CC(N)=O)C(=O)N[C@@H](CC(C)C)C(=O)N[C@@H](Cc1ccccc1)C(=O)N[C@@H](CCCCN)C(=O)N[C@@H](CCCNC(=N)N)C(=O)N[C@@H](CCCNC(=N)N)C(=O)O | histidine kinase ComD (Streptococcus pneumoniae serotype 4, UniProt A0A0H2US84) | reporter gene, antagonist | Streptococcus pneumoniae, TIGR4 comX::lacZ | 30 min, 37 °C, together with: CSP2 250 nM | > 10 µM |
| O=C(CCl)c1ccc(F)cc1 | Protein FosB, ΔFosB isoform (Fosb, Mus musculus, UniProt P13346) | ΔFOSB homodimer DNA binding, fluorescence polarization |  | 15 min, together with: TMR-cdk5 oligonucleotide | > 200 µM |
| CCOc1ccc2nc3cc(N)ccc3c(N)c2c1 | Cocaine esterase (CES2, Homo sapiens, UniProt O00748) | enzyme activity, inhibitor, absorbance |  |  | 41.6 µM |
| CC(C)[C@@H]1NC(=O)[C@]2(C)CSC(=N2)c2cccc(n2)CNC(=O)C[C@@H](/C=C/CCS)OC1=O | HDAC6 | inhibitor |  |  | 0.654 µM |
| O=C(CCCCCCC(=O)Nc1ccccc1N=Nc1ccccc1)NO | HDAC3 | enzyme activity, inhibitor, fluorescence |  |  | 0.0077 µM |
| OC1(c2ccc(Cl)cc2)CCN(Cc2ccccc2F)CC1 | CatSper channel complex (Homo sapiens, UniProt Q7RTX7+Q86XQ3+Q8NEC5+Q96P56) | calcium influx, inhibitor, FLIPR | human sperm | together with: 3 µM progesterone | 18 ± 2 µM |
| OC(COCc1ccccc1Cl)CN1CC=C(c2c[nH]c3ccccc23)CC1 (racemic) | SLC6A4 (Homo sapiens, UniProt P31645) | transporter uptake, inhibitor, radiometric |  |  | 0.441 µM |
| O=C(O)c1ccccc1Nc1ccc(Oc2ccc(F)cc2)cc1 | Androgen receptor (AR, Homo sapiens, UniProt P10275) | reporter gene, antagonist, MMTV-Luc reporter | MDA-kb2 | 20 h, together with: 0.2 nM DHT (EC50) | 3.5 ± 2.4 µM |
| CN[C@@H]1[C@H](O)[C@H](NC)[C@H]2O[C@]3(O)[C@H](O[C@@H]2[C@H]1O)O[C@H](C)C[C@@]3(O)CNCc1ccccc1 | Small ribosomal subunit protein uS5, 70S ribosome (rpsE, Mycolicibacterium smegmatis, UniProt A0QSG6) | translation, inhibitor, in vitro translation, luciferase | Mycobacterium smegmatis ribosomes |  | 0.87 µg/mL |
| CC(C)C[C@@H]1NC(=O)[C@H](CCCCN)NC(=O)[C@H](CC(C)C)NC(=O)[C@@](C)(NC(=O)[C@H](Cc2ccccc2)NC(=O)[C@H](Cc2ccc(O)cc2)NC(=O)[C@H](C)NC(=O)[C@@H](N)[C@@H](C)O)CCCCC=CCCCC[C@@](C)(C(=O)NCC(=O)N[C@@H](CCCNC(=N)N)C(=O)N[C@@H](Cc2c[nH]c3ccccc23)C(N)=O)NC1=O | Gag-Pol polyprotein, integrase (gag-pol, Human immunodeficiency virus type 1 group M subtype B, UniProt P04585) | integrase strand transfer, inhibitor |  |  | 44 ± 4 µM |
| COc1cccc(/C=C/C(=O)c2cccc3ccccc23)c1OC | PTGS1 (Ovis aries, UniProt P05979) | enzyme activity, inhibitor, ELISA |  |  | < 25 µM and 21.1 µM |
| O=C(Nc1ccccc1)c1ccccc1O | HDAC6 | enzyme activity, inhibitor, fluorescence |  |  | > 10 µM |
| Nc1nc2nc3nc(N)sc3cc2s1 | Papain (Carica papaya, UniProt P00784) | enzyme activity, inhibitor |  |  | 18 µM |
| C#CCSc1nc(Sc2nnnn2-c2ccccc2)c2nnn(Cc3ccccc3)c2n1 | KDM1A (Homo sapiens, UniProt O60341) | enzyme activity, inhibitor, fluorescence |  |  | 0.15 µM |
| COc1cc(-c2nn(C3CCC(N4CCN(C)CC4)CC3)c3ncnc(N)c23)ccc1NC(=O)OCc1ccccc1 (stereo not drawn) | PRKCA (Homo sapiens, UniProt P17252) | kinase activity, inhibitor |  | together with: ATP 100 µM, MBP substrate | > 20 µM |
| CSCC[C@H](NC(=O)[C@H](Cc1ccccc1)NC(=O)[C@H](Cc1cnc[nH]1)NC(=O)CNC(=O)[C@@H](NC(=O)[C@H](C)NC(=O)[C@H](Cc1c[nH]c2ccccc12)NC(=O)[C@H](CC(C)C)NC(=O)[C@H](CC(N)=O)NC(=O)CN)[C@@H](C)O)C(N)=O | BRS3 (Homo sapiens, UniProt P32247) | human GRPR activity, cell-based |  |  | > 3 µM |
| COc1ccc(N=Nc2cccc(NC(=O)CCCCCCC(=O)NO)c2)cc1 | HDAC6 | enzyme activity, inhibitor |  | cis isomer, irradiated | 0.151 ± 0.027 µM |
| CC[C@H](C)[C@H](NC(=O)[C@H](CO)NC(=O)[C@H](Cc1ccc(O)cc1)NC(=O)[C@H](CC(=O)O)NC(=O)[C@H](CO)NC(=O)[C@@H](NC(=O)[C@H](Cc1ccccc1)NC(=O)[C@@H](NC(=O)CNC(=O)[C@@H]1CCCN1C(=O)[C@H](C)NC(=O)[C@@H](N)Cc1ccc(O)cc1)[C@@H](C)O)[C@@H](C)CC)C(=O)N[C@@H](C)C(=O)N[C@@H](CCSC)C(=O)N[C@@H](CC(=O)O)C(=O)N[C@@H](CCCCN)C(=O)N[C@H](C(=O)N[C@@H](CCCNC(=N)N)C(=O)N[C@@H](CCC(N)=O)C(=O)N[C@@H](CCC(N)=O)C(=O)N[C@@H](CC(=O)O)C(=O)N[C@@H](Cc1ccccc1)C(=O)N[C@H](C(=O)N[C@@H](CC(N)=O)C(=O)N[C@@H](Cc1c[nH]c2ccccc12)C(=O)N[C@@H](CC(C)C)C(=O)N[C@@H](CC(C)C)C(=O)N[C@@H](C)C(=O)N[C@@H](CCC(N)=O)C(=O)N[C@@H](CCCNC(=N)N)C(=O)NCC(=O)N[C@@H](CCCCN)C(=O)N[C@@H](CCCCN)C(=O)N[C@@H](CO)C(=O)N[C@@H](CC(=O)O)C(=O)N[C@@H](Cc1c[nH]c2ccccc12)C(=O)N[C@@H](CCCCN)C(=O)N[C@@H](Cc1c[nH]cn1)C(=O)N[C@@H](CC(N)=O)C(=O)N[C@H](C(=O)N[C@H](C(=O)N[C@@H](CCC(N)=O)C(=O)O)[C@@H](C)O)[C@@H](C)CC)C(C)C)[C@@H](C)CC | GIPR (Homo sapiens, UniProt P48546) | ligand displacement in cells, radioligand |  |  | 0.00794 µM |
| CC(C)C[C@H]1NC(=O)[C@H](CCCNC(=N)N)NC(=O)[C@H](CCCCN)NC(=O)[C@H](CC(=O)O)NC(=O)[C@H](CCCCN)NC(=O)[C@H](CO)NC1=O | Disintegrin and metalloproteinase domain-containing protein 8 (Homo sapiens, UniProt P78325) | enzyme activity, inhibitor, fluorescence |  |  | 0.478 µM |
| CCOC(=O)c1cnc(N2CC[C@@H](NC(=O)c3[nH]c(C)c(Cl)c3Cl)[C@@H](OC)C2)o1 | DNA gyrase subunit B (Staphylococcus aureus, UniProt P0A0K8) | enzyme activity |  |  | > 10 µM |

For quick reference, copied from above:
| Compound | target | test | system | setting | IC50 |
| --- | --- | --- | --- | --- | --- |
| CC(C)C[C@H]1NC(=O)[C@H](CCCNC(=N)N)NC(=O)[C@H](CCCCN)NC(=O)[C@H](CC(=O)O)NC(=O)[C@H](CCCCN)NC(=O)[C@H](CO)NC1=O | Disintegrin and metalloproteinase domain-containing protein 8 (Homo sapiens, UniProt P78325) | enzyme activity, inhibitor, fluorescence |  |  | 0.478 µM |
| O=C(CCCCCCC(=O)Nc1cccc(N=Nc2ccccc2)c1)NO | HDAC3 | enzyme activity, inhibitor |  | trans isomer | 0.019 ± 0.009 µM |
